Assay results from different studies.
Every numbered part comes from another study and shows a few of its results, in no order. Values joined by “and” are separate records of one study, mostly repeats; a detail may differ.
Sequence of UniProt P42336 (whole entry, unmodified, looked up): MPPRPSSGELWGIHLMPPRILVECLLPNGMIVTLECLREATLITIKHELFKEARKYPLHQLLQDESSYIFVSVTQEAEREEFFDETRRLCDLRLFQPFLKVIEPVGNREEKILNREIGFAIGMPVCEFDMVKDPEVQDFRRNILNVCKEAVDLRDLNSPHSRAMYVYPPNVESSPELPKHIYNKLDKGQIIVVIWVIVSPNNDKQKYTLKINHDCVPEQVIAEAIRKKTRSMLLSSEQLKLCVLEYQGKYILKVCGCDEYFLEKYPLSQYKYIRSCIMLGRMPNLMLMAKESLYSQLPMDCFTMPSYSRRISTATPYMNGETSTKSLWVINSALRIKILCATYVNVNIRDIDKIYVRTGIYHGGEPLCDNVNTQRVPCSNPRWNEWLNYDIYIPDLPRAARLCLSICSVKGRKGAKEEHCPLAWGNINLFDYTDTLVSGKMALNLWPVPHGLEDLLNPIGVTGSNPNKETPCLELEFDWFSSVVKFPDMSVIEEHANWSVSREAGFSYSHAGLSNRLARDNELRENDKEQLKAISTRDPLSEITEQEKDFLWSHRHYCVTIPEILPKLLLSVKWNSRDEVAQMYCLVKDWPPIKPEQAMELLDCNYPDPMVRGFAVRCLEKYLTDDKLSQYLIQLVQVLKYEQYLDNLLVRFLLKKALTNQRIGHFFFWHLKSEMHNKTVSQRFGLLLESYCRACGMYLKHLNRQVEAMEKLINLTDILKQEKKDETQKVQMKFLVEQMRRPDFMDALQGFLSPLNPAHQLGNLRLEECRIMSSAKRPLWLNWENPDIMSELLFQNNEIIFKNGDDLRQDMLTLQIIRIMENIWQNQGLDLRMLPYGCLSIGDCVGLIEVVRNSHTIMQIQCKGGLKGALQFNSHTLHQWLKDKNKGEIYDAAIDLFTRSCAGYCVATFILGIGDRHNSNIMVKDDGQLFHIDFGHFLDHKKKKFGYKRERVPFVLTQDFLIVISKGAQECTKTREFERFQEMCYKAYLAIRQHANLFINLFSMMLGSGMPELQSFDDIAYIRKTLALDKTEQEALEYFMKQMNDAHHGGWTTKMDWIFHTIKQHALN
Sequence of UniProt P29317 (whole entry, looked up): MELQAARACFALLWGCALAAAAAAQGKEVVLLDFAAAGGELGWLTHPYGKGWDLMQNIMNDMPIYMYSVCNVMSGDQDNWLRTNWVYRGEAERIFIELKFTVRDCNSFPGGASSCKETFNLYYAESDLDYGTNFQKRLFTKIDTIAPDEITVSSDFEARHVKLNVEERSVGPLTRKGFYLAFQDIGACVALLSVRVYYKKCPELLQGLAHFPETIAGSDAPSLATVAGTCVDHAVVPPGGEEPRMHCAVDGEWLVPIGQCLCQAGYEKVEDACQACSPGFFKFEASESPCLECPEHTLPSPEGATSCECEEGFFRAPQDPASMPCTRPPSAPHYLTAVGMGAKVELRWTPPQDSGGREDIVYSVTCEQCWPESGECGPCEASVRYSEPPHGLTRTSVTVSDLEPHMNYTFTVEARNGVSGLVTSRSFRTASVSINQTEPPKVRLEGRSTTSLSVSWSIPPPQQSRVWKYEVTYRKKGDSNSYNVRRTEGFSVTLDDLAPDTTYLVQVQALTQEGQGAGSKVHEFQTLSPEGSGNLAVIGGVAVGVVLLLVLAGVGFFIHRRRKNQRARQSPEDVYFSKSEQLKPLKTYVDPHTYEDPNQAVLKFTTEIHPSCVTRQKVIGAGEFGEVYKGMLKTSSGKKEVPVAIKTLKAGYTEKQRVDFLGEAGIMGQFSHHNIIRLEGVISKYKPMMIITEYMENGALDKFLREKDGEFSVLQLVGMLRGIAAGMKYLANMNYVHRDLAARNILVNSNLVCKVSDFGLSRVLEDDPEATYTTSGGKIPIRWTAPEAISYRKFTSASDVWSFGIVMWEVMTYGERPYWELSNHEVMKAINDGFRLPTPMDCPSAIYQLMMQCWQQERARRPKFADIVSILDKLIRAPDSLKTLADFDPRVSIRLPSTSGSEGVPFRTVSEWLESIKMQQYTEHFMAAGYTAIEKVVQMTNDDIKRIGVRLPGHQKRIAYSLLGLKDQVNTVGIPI
Sequence of UniProt P23458 (whole entry, looked up): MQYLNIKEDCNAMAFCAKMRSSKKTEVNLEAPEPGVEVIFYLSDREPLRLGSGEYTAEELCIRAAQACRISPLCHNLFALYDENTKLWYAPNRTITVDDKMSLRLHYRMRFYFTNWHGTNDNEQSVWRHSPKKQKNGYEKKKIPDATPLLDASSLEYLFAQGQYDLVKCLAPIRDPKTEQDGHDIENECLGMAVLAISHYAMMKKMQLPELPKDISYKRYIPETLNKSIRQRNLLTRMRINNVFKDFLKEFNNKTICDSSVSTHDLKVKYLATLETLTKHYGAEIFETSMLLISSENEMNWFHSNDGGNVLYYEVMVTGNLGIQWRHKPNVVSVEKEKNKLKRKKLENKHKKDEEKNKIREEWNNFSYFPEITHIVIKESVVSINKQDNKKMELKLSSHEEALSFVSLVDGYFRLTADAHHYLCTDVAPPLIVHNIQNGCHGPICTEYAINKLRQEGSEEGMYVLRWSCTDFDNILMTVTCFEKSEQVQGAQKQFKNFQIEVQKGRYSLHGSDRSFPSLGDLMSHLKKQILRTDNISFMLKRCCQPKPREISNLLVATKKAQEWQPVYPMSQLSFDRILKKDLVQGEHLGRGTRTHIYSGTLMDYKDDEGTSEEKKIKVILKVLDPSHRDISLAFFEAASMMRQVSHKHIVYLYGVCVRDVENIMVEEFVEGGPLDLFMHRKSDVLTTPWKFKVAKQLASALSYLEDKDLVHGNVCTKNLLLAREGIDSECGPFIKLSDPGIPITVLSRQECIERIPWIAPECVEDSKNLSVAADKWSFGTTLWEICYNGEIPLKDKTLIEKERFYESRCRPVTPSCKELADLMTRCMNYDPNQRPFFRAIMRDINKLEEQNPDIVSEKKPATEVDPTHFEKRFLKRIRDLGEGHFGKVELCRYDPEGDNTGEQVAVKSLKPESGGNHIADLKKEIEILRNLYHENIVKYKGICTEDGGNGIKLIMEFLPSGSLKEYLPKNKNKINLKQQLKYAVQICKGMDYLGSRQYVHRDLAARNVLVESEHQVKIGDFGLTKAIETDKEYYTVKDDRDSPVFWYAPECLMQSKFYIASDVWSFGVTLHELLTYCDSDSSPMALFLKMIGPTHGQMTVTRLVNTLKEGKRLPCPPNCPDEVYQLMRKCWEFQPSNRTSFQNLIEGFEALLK
Sequence of UniProt Q99755 (whole entry, looked up): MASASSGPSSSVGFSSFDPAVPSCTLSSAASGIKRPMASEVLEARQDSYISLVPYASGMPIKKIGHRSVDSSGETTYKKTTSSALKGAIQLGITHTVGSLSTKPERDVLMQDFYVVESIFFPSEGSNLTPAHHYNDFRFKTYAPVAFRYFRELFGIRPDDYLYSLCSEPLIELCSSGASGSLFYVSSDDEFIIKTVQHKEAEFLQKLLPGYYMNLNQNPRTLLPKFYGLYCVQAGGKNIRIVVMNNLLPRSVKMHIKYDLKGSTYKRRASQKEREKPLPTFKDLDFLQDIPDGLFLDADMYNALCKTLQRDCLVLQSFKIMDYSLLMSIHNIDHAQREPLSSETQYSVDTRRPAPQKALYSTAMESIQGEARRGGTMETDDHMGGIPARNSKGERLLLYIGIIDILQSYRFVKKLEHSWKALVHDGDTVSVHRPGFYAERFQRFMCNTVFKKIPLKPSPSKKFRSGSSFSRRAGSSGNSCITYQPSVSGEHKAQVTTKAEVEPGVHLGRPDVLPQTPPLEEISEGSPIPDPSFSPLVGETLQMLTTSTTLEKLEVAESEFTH
Sequence of UniProt Q9Y2H1 (whole entry, looked up): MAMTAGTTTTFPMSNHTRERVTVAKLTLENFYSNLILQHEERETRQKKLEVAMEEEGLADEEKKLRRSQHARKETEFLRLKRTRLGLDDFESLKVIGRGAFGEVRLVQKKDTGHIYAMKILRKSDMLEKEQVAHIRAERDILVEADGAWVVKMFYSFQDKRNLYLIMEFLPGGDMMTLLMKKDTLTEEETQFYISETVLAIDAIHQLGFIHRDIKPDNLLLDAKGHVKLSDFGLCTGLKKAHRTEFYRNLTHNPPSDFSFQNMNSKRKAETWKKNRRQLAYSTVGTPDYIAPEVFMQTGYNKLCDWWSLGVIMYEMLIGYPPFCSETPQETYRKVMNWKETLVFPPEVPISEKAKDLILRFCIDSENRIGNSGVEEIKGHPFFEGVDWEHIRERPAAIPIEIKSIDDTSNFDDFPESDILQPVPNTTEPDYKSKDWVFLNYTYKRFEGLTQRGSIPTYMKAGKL
Sequence of UniProt P11802 (whole entry, looked up): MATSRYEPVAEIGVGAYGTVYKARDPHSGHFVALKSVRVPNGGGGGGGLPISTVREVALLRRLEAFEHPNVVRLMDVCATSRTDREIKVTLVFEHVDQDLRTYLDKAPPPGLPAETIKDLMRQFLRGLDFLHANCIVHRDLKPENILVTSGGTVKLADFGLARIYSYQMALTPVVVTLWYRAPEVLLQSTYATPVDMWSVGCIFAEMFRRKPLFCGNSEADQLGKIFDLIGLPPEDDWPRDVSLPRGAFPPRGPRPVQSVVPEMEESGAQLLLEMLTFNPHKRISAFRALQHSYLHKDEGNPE
Sequence of UniProt Q9UIK4 (whole entry, looked up): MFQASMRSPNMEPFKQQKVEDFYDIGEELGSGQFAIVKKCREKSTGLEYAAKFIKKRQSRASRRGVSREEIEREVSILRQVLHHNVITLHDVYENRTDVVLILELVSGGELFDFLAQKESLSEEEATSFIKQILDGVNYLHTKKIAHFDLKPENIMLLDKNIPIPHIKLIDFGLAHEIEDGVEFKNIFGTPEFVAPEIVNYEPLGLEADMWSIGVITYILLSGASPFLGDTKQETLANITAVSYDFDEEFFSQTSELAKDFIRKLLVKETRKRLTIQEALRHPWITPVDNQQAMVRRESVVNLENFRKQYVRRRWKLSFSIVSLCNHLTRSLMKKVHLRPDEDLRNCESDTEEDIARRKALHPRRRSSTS

Sample 1
Compound: CC1=C(C#N)C(c2ccc3c(c2)c(NC(=O)c2ccccc2C)nn3C)C(C#N)=C(C)N1
Concentration: 1 µM
The remaining binding was 88% (Serine/threonine-protein kinase 17B (STK17B, Homo sapiens, UniProt O94768); cell-free assay, competition with immobilised ligand).
Tyrosine-protein kinase ABL1, non-phosphorylated (ABL1, Homo sapiens, UniProt P00519, T315I); cell-free assay, competition with immobilised ligand — remaining binding: 88%.
For Serine/threonine-protein kinase Chk1 (CHEK1, Homo sapiens, UniProt O14757); cell-free assay, competition with immobilised ligand: remaining binding read 81%.
For cAMP-dependent protein kinase catalytic subunit beta (PRKACB, Homo sapiens, UniProt P22694); cell-free assay, competition with immobilised ligand: remaining binding read 100%.
Tyrosine-protein kinase ABL1, phosphorylated (ABL1, Homo sapiens, UniProt P00519, F317I); binding — remaining binding: 78%.
For Tyrosine-protein kinase JAK1, JH2 (JAK1, Homo sapiens, UniProt P23458); cell-free assay, competition with immobilised ligand: remaining binding read 90%.
Ephrin type-A receptor 2 (EPHA2, Homo sapiens, UniProt P29317); cell-free assay, competition with immobilised ligand — remaining binding: 82%.
The remaining binding was 100% (Serine/threonine-protein kinase MRCK alpha (CDC42BPA, Homo sapiens, UniProt Q5VT25); cell-free assay, competition with immobilised ligand).
It gave 100% for remaining binding (ALK tyrosine kinase receptor (ALK, Homo sapiens, UniProt Q9UM73); cell-free assay, competition with immobilised ligand).
For Ephrin type-B receptor 6 (EPHB6, Homo sapiens, UniProt O15197); cell-free assay, competition with immobilised ligand: remaining binding read 81%.
Macrophage colony-stimulating factor 1 receptor (CSF1R, Homo sapiens, UniProt P07333); cell-free assay, competition with immobilised ligand — remaining binding: 99%.
The remaining binding was 100% (Protein-tyrosine kinase 6 (PTK6, Homo sapiens, UniProt Q13882); cell-free assay, competition with immobilised ligand).
The remaining binding was 91% (Beta-adrenergic receptor kinase 1 (GRK2, Homo sapiens, UniProt P25098); cell-free assay, competition with immobilised ligand).
The remaining binding was 90% (Phosphatidylinositol 4,5-bisphosphate 3-kinase catalytic subunit alpha isoform (PIK3CA, Homo sapiens, UniProt P42336, E545K); cell-free assay, competition with immobilised ligand).
It gave 100% for remaining binding (Cyclin-dependent kinase 9 (CDK9, Homo sapiens, UniProt P50750); cell-free assay, competition with immobilised ligand).
Mitogen-activated protein kinase kinase kinase kinase 1 (MAP4K1, Homo sapiens, UniProt Q92918); cell-free assay, competition with immobilised ligand — remaining binding: 81%.
Receptor-interacting serine/threonine-protein kinase 2 (RIPK2, Homo sapiens, UniProt O43353); cell-free assay, competition with immobilised ligand — remaining binding: 100%.
It gave 80% for remaining binding (Mitogen-activated protein kinase kinase kinase kinase 3 (MAP4K3, Homo sapiens, UniProt Q8IVH8); cell-free assay, competition with immobilised ligand).
The remaining binding was 100% (Phosphatidylinositol 4-phosphate 5-kinase type-1 alpha (PIP5K1A, Homo sapiens, UniProt Q99755); cell-free assay, competition with immobilised ligand).
For Death-associated protein kinase 2 (DAPK2, Homo sapiens, UniProt Q9UIK4); cell-free assay, competition with immobilised ligand: remaining binding read 98%.
For Cyclin-dependent kinase 4 (CDK4, Homo sapiens, UniProt P11802); cell-free assay, competition with immobilised ligand: remaining binding read 100%.
Serine/threonine-protein kinase B-raf (BRAF, Homo sapiens, UniProt P15056); cell-free assay, competition with immobilised ligand — remaining binding: 47%.
Phosphatidylinositol 4,5-bisphosphate 3-kinase catalytic subunit alpha isoform (PIK3CA, Homo sapiens, UniProt P42336, H1047L); cell-free assay, competition with immobilised ligand — remaining binding: 100%.
The remaining binding was 100% (Casein kinase I isoform gamma-1 (CSNK1G1, Homo sapiens, UniProt Q9HCP0); cell-free assay, competition with immobilised ligand).
For Serine/threonine-protein kinase 38-like (STK38L, Homo sapiens, UniProt Q9Y2H1); binding, competition with immobilised ligand: remaining binding read 98%.

Sample 2
Organism: Sarcocystis neurona
Read-out: parasite growth
Concentration: 10 µM
Notes: secondary screen
With CC1CCN(CCCC(=O)c2ccc(F)cc2)CC1.Cl the inhibition was -33.9%.
For CO[C@H]1/C=C/O[C@@]2(C)Oc3c(C)c(O)c4c(O)c(c(/C=N/N5CCN(C6CCCC6)CC5)c(O)c4c3C2=O)NC(=O)/C(C)=C\C=C\[C@H](C)[C@H](O)[C@@H](C)[C@@H](O)[C@@H](C)[C@H](OC(C)=O)[C@@H]1C, the inhibition was -67.3%.
The inhibition of CN(C)[C@@H]1C(O)=C(C(N)=O)C(=O)[C@@]2(O)C(O)=C3C(=O)c4c(O)cccc4[C@@](C)(O)[C@H]3[C@H](O)[C@@H]12 is reported as 5.6%.

Sample 3
Cell line: HaCaT
Concentration: 100 µM
Time: 36 h
Cc1cc(=O)oc2cc(O)ccc12 gave a viability of 52.1%.
COc1c(N2CCNC(C)C2)c(F)cc2c(=O)c(C(=O)O)cn(C3CC3)c12 (stereo not drawn) gave a viability of 88%.
With COC(=O)[C@@H]1[C@H]2C[C@H]3c4[nH]c5ccccc5c4CCN3C[C@@H]2CC[C@@H]1O the viability was 59.6%.

Sample 4
Species: human
Matrix: microsomes or S9
Concentration: 2 µM
Time: 0.5 h
CCC1c2c(OC)c3c(c(OC)c2C(c2cc(OC)c4c(c2OC)OCO4)C1C)OCO3 (stereo not drawn) gave a remaining compound of 19.6%.
For CC1Cc2cc(-c3ccc(C#N)c(O)n3)ccc2O1 (stereo not drawn), the remaining compound was 71.3%.
Cc1c(C)n2c3c(=O)[nH]c(=O)n(C)c3nc2n1CCN(C)C has a remaining compound of 99.8%.

Sample 5
Target: Prothrombin, mature alpha-thrombin (F2, Homo sapiens, UniProt P00734)
Method: aptamer microarray, sandwich
Molecule type: DNA with 2'F-ANA
Matrix: in vitro
Concentration: 200 nM
Notes: whole 15-mer aptamer, many near background
Together with: Cy3 exosite-II aptamer, 400 nM
Direction: higher = stronger binding
Strand: GGTTGGTGTGGTTGG
`2'F-ANA at 1 2 3 4 7 8 9 11 15`: “mean fluorescence intensity” 171 a.u.
`2'F-ANA at 2 3 4 7 10 11 13 14` — result for “mean fluorescence intensity”: 171 a.u.
For `2'F-ANA at 1 3 4 5 7 9 10 11 12 13 14 15`, “mean fluorescence intensity” read 51.7 a.u.
Under “mean fluorescence intensity”, `2'F-ANA at 3 6 7 13` is recorded as 913 a.u.
`2'F-ANA at 2 6 7 8 11 14 15` — result for “mean fluorescence intensity”: 126 a.u.
For `2'F-ANA at 1 2 4 6 7 8 9 10 14`, “mean fluorescence intensity” read 52.3 a.u.
For `2'F-ANA at 1 6 7 8 9 10 11 13 14 15`, “mean fluorescence intensity” read 53.1 a.u.
Under “mean fluorescence intensity”, `2'F-ANA at 1 2 3 5 8 11 14 15` is recorded as 45.6 a.u.

Sample 6
Method: PRP chromatography
Notes: linear fit, 1 mL
With CC(C)C[C@@H]1NC(=O)[C@H](CC(C)C)NC(=O)[C@@H](CC(C)C)NC(=O)[C@H](CC(C)C)NC(=O)[C@@H](CCC(=O)N2CCCC2)NC(=O)[C@H](Cc2cscn2)NC(=O)[C@H](C)NC1=O the logD 1,9-decadiene/water was -1.33 log units.
CC(C)C[C@@H]1NC(=O)[C@H](CC(C)C)NC(=O)[C@H](CC(C)C)NC(=O)[C@H](C(C)C)NC(=O)[C@H](C(C)C)NC(=O)[C@H](C)NC(=O)[C@H](C)NC1=O has a logD 1,9-decadiene/water of -1.21 log units.
The logD 1,9-decadiene/water of CC(C)C[C@@H]1NC(=O)[C@H](Cc2cscn2)NC(=O)[C@@H](CC(C)C)NC(=O)[C@H](C(C)C)NC(=O)[C@H](CC(C)C)NC(=O)[C@@H](CC(C)C)NC(=O)[C@H](CC(C)C)NC1=O is reported as 1.09 log units.

Other studies, line by line
For O=C1CCC(N2Cc3cc(C4CCN(Cc5ccccc5)CC4)ccc3C2=O)C(=O)N1 (stereo not drawn), the CL was 49.7 mL/min/kg and 54.7 mL/min/kg (Sprague Dawley rat, male, plasma; intravenous, 1.0 mg/kg).
For CC(C)n1cnc(-c2ccc(F)cc2)c1-c1ncc(C(=O)Nc2ccc(N3CCN(C)CC3)cc2)[nH]1, “patients with constipation” read 0% (phase 2a trial; idiopathic pulmonary fibrosis patients; 60 mg once daily, adverse event grade 4).
CC(=O)N[C@@H](Cc1c[nH]c2ccccc12)C(=O)N[C@@H](CCC(=O)C=[N+]=[N-])C(=O)OC(C)C: “log2 fold change” 0.47 (refers to: serine; mouse, EL4 tumour-bearing, EL4 tumour; dose not given; reference: vehicle).
The plasma concentration of CN(C(=O)c1ccn2ncc(-c3ccc(C(N)=O)cc3)c2c1)c1ccc(C#N)cn1 is reported as 800 nM (C57BL/6 IFN-γ knockout mouse, female, plasma; oral, 10 mg/kg, 1 h).
For O=C(COc1ccccc1P(=O)(O)O)NCC(F)(F)c1cccc(F)c1, the ATP/ADP ratio was 3.76 and 3.82 and 3.83 (INS-1; concentration not given, low glucose).
With Ic1ccc(Nc2nc(NCCN3CCOCC3)nc(N3CCOCC3)n2)cc1 the reporter signal was 182% and 171% and 145% and 165% (HEK293T ATF4-firefly luciferase reporter; integrated stress response, refers to: ATF4; 10 µM, without ISRIB; reference: DMSO).
